Measured values of several laboratories.
Parts stem from different laboratories: compare values within a part only.
Sequence of UniProt P42336 (whole entry, unmodified, looked up): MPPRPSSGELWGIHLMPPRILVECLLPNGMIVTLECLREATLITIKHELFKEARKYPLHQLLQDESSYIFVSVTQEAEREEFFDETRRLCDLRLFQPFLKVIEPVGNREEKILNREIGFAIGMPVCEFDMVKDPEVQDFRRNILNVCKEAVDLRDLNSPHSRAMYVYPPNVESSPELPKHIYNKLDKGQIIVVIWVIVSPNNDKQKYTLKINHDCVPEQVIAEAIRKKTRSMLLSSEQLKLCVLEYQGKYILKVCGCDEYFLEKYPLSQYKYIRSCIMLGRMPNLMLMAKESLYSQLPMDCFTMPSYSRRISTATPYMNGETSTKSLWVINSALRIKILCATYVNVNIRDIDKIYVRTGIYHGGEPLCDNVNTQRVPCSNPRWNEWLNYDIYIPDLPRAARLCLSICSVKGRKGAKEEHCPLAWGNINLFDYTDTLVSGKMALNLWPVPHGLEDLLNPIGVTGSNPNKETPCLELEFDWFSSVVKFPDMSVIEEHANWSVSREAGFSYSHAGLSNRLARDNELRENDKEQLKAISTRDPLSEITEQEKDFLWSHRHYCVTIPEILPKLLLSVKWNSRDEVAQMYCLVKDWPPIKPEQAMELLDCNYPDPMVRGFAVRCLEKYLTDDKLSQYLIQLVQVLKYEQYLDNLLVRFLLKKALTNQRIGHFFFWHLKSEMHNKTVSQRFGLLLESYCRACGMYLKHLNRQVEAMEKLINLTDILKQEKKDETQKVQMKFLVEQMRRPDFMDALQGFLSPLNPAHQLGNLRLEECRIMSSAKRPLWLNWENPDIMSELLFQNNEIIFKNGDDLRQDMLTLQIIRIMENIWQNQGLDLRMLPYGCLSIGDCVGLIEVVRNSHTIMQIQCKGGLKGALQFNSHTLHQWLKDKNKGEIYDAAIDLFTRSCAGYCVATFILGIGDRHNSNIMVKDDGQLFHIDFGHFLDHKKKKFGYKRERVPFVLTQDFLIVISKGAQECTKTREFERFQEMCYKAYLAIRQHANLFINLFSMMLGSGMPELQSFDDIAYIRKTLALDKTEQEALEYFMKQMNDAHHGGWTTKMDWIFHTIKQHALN
Sequence of UniProt P48730 (whole entry, looked up): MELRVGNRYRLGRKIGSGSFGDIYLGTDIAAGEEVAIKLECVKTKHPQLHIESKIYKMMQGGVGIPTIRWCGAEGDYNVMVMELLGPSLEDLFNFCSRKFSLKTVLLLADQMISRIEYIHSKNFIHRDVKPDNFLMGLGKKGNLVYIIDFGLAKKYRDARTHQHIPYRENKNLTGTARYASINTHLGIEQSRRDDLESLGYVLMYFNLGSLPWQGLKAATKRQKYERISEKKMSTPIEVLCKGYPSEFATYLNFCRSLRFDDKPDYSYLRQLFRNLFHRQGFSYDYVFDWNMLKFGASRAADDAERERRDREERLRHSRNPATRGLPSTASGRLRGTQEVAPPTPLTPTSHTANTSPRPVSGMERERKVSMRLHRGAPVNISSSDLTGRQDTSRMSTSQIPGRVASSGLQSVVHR
Sequence of UniProt P19784 (whole entry, looked up): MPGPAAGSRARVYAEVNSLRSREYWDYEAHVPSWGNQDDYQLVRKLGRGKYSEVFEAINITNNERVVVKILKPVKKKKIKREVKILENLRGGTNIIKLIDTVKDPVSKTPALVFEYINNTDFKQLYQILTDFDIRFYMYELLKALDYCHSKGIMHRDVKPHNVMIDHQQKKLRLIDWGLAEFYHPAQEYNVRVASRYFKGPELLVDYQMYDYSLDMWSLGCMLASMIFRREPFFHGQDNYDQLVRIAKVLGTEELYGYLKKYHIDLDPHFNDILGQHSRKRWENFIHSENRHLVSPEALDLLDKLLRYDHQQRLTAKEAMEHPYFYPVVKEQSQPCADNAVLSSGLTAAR
Sequence of UniProt Q13873 (whole entry, looked up): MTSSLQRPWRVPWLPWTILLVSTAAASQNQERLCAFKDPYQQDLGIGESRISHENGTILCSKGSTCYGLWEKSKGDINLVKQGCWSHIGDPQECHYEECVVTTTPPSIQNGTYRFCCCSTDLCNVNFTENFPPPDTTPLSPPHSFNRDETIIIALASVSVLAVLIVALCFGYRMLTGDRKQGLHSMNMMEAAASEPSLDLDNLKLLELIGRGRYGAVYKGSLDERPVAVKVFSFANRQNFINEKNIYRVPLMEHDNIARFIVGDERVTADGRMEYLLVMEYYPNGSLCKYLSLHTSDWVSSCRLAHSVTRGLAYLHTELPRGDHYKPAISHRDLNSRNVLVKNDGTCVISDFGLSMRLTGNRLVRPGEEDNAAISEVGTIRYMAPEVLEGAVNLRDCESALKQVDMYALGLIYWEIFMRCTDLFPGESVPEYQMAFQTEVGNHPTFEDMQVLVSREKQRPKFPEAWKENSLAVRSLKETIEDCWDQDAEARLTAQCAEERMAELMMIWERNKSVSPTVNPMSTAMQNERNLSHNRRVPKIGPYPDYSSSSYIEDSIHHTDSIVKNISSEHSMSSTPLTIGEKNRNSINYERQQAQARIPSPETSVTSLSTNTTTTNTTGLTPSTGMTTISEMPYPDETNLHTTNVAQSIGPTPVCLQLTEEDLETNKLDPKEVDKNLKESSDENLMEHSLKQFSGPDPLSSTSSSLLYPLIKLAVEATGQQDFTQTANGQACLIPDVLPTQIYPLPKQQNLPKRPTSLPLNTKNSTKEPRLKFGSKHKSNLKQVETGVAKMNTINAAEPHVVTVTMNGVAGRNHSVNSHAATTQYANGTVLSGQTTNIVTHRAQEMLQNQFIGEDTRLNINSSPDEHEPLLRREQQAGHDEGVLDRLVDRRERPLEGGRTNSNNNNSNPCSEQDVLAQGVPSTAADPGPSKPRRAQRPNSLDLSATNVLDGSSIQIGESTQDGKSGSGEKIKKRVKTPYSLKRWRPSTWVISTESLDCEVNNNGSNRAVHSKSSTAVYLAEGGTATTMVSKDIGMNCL
Sequence of UniProt P49841 (whole entry, looked up): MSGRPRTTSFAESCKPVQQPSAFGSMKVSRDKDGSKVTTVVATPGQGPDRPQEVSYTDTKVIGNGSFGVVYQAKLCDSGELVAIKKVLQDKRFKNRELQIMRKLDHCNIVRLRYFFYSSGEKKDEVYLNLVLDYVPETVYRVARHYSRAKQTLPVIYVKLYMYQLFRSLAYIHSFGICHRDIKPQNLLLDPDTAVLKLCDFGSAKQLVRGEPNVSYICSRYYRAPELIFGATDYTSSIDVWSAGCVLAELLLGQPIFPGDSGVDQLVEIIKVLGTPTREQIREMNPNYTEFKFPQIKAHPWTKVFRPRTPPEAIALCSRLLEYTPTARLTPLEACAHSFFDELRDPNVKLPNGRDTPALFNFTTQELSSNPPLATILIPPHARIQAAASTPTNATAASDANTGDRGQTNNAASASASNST
Sequence of UniProt P36896 (whole entry, looked up): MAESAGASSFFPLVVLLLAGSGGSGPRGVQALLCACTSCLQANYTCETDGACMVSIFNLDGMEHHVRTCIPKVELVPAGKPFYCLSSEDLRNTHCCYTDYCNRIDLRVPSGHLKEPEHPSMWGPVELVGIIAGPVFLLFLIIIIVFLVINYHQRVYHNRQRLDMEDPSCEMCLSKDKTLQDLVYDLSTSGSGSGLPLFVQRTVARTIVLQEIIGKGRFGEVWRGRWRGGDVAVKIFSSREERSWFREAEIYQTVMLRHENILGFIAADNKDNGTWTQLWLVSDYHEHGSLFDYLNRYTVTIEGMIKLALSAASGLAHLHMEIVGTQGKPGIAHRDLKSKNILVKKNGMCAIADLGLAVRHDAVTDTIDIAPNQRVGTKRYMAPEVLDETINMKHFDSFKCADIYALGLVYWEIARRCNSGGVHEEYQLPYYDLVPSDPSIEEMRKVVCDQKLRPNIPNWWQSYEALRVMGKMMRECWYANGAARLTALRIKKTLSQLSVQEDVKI

Block 1 — cell line: HaCaT; concentration: 100 µM; time: 36 h
SMILES | viability [%]
O=C1c2c(O)ccc(O)c2C(=O)c2c(NCCNCCO)ccc(NCCNCCO)c21 | -1.31
O=C(Nc1ccc([N+](=O)[O-])cc1Cl)c1cc(Cl)ccc1O | 10.1
CC[C@H]1OC(=O)[C@@](C)(F)C(=O)[C@H](C)[C@@H](O[C@@H]2O[C@H](C)C[C@H](N(C)C)[C@H]2O)[C@](C)(OC)C[C@@H](C)C(=O)[C@H](C)[C@H]2N(CCCCn3cc(-c4cccc(N)c4)nn3)C(=O)O[C@]12C | 6.12
CC(=O)N[C@@H](CCC(N)=O)C(=O)O | 90.2
Cc1ccc(-c2ncc(Cl)cc2-c2ccc(S(C)(=O)=O)cc2)cn1 | 84.7
CC(=O)OCC(=O)[C@@]1(O)CC[C@H]2[C@@H]3CCC4=CC(=O)CC[C@]4(C)[C@H]3C(=O)C[C@@]21C | 86.9
CCn1cc(C(=O)O)c(=O)c2cc3c(cc21)OCO3 | 96.8
CCCCOc1ccc(OCCCN2CCOCC2)cc1 | 54.8
CCN(CC)CCNC(=O)c1cc(S(C)(=O)=O)ccc1OC | 89.2
Nc1ccc2cc3ccc(N)cc3nc2c1 | 17.8
CNC[C@H](O)c1cccc(O)c1 | 83.3

Block 2 — method: phase 2a trial; host: idiopathic pulmonary fibrosis patients
Structure (SMILES): CC(C)n1cnc(-c2ccc(F)cc2)c1-c1ncc(C(=O)Nc2ccc(N3CCN(C)CC3)cc2)[nH]1
dose | setting | patients with gastrointestinal disorders
30 mg once daily | adverse event grade 2 | 2%
60 mg once daily | adverse event grade 1 | 4%
dose not given | adverse event grade 4, all dose arms pooled | 0%
30 mg once daily | adverse event grade 5 | 0%
60 mg once daily | adverse event grade 2 | 2%
30 mg once daily | adverse event grade 3 | 0%
60 mg once daily | adverse event grade 5 | 0%
dose not given | grade 1, arms pooled | 9%
60 mg once daily | adverse event grade 3 | 0%
30 mg once daily | adverse event grade 4 | 0%

Block 3 — read-out: cell-free assay; method: competition with immobilised ligand; concentration: 1 µM
SMILES: C[C@H](NC(=O)c1cnc2n1[C@](C)(Cc1ccc(C#N)cc1)C(=O)N2c1cc(Cl)c(F)c(Cl)c1)C(=O)NC1(c2ccccn2)CC1
target | remaining binding
CSNK2A2 (Homo sapiens, UniProt P19784) | 99%
CSNK1D (Homo sapiens, UniProt P48730) | 100%
MAP3K15 (Homo sapiens, UniProt Q6ZN16) | 76%
TTK (Homo sapiens, UniProt P33981) | 100%
GSK3B (Homo sapiens, UniProt P49841) | 100%
BMPR2 (Homo sapiens, UniProt Q13873) | 100%
Receptor-type tyrosine-protein kinase FLT3, autoinhibited (FLT3, Homo sapiens, UniProt P36888) | 100%
Non-receptor tyrosine-protein kinase TYK2, JH1 (TYK2, Homo sapiens, UniProt P29597) | 100%
MAP3K19 (Homo sapiens, UniProt Q56UN5) | 100%
PIK3CA (Homo sapiens, UniProt P42336, Q546K) | 97%
MAP3K4 (Homo sapiens, UniProt Q9Y6R4) | 97%
CSNK1A1L (Homo sapiens, UniProt Q8N752) | 100%
MAPK11 (Homo sapiens, UniProt Q15759) | 100%
EPHA7 (Homo sapiens, UniProt Q15375) | 84%
DYRK1B (Homo sapiens, UniProt Q9Y463) | 100%
ACVR1B (Homo sapiens, UniProt P36896) | 99%
MKNK2 (Homo sapiens, UniProt Q9HBH9) | 100%
BMPR1B (Homo sapiens, UniProt O00238) | 99%
Ribosomal protein S6 kinase alpha-2, N-terminal kinase domain (RPS6KA2, Homo sapiens, UniProt Q15349) | 100%
STK32C (Homo sapiens, UniProt Q86UX6) | 100%

Block 4 — read-out: enzyme activity; action: inhibitor; concentration: 0.5 µM; reference: control
Target: Serine/threonine-protein kinase D3 (PRKD3, Homo sapiens, UniProt O94806)
Residues (O94806 1-890): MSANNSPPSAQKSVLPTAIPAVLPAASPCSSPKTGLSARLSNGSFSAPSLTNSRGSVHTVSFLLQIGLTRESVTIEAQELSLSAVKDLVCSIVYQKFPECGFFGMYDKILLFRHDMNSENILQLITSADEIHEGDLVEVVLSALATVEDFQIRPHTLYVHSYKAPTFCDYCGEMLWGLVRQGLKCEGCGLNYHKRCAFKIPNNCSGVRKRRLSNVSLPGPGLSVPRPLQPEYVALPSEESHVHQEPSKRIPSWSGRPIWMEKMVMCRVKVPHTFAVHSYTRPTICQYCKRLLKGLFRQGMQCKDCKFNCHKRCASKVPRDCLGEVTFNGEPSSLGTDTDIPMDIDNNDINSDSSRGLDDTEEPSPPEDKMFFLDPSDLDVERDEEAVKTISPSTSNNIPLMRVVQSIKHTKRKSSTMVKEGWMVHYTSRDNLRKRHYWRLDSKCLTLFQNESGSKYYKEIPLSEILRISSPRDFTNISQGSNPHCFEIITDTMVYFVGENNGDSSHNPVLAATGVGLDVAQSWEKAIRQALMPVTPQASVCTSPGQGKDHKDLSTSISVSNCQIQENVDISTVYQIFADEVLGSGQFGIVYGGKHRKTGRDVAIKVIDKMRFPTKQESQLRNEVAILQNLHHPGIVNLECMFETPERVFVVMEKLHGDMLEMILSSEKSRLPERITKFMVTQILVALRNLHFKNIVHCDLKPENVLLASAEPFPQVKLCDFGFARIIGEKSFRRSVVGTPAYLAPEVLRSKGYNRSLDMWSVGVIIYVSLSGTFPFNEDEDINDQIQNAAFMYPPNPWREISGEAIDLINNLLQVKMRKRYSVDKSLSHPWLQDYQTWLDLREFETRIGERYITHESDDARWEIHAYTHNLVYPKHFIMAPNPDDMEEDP
Structure (SMILES) | remaining activity
COc1ccc(S(=O)(=O)N(CCO)c2ccccc2CN(C)CC=Cc2ccc(Cl)cc2)cc1 | 97.1%
CCCC(=O)Oc1ccc2[nH]c(C(=O)c3cc4ccccc4[nH]3)cc2c1 | 102%
CSc1nc(-c2ccnc(N[C@@H](C)c3ccccc3)c2)c(-c2ccc(F)cc2)[nH]1 (racemic) | 82%
N#CC(=C(N)Sc1ccc(N)cc1)c1ccccc1C(F)(F)F | 96.8%
CC#CC(=O)Nc1cc2c(Nc3ccc(F)c(Cl)c3)ncnc2cn1 | 103%
Oc1ccc(Nc2nc(-c3ccc(Cl)cc3)cs2)cc1 | 97.7%
NC(=O)c1ccc(N(C(N)=O)c2c(F)cccc2F)nc1-c1ccc(F)cc1F | 85.1%
O=C1Cc2c([nH]c3ccc([N+](=O)[O-])cc23)-c2ccccc2N1 | 88.2%
Cc1cncc2cccc(S(=O)(=O)N3CCCN(C(=O)CN)C[C@@H]3C)c12 | 85.4%
Nc1ncnc2c1cnn2-c1ccccc1 | 87.3%
Nc1nccc(-c2c(-c3ccc(F)cc3)ncn2C2CCNCC2)n1 | 37.9%
CC[n+]1c(/C=C/N(C)c2ccccc2)n(-c2ccccc2)c2ccc(-c3nc4ccccc4s3)cc21 | 97.4%
CC(C)(C)n1nc(Cc2cccc3ccccc23)c2c(N)ncnc21 | 20.9%
Fc1ccc(-c2nc3n(c2-c2ccncc2)CCS3)cc1 | 88.2%
Cc1ccc(NC2=CC(=O)c3sc(C)nc3C2=O)cc1 | 93.5%
O=S(=O)(NCCNC/C=C/c1ccc(Br)cc1)c1cccc2cnccc12 | 79.2%
Nc1nc(Nc2ccc(S(N)(=O)=O)cc2)nn1C(=O)c1c(F)cccc1F | 55.6%
CCc1[nH]c(-c2ccc(OC)cc2)nc1-c1ccncc1 | 97.1%
O=C1NC(=O)C(c2c[nH]c3ccccc23)=C1c1c[nH]c2ccccc12 | 88.4%
Cc1cc(Nc2nc(-c3ccccc3)nc3ccccc23)n[nH]1 | 93.9%
CC(=O)c1ccc(N2CCOCC2)cc1O | 98.4%

For quick reference, copied from above (block 1):
SMILES | viability [%]
CC(=O)N[C@@H](CCC(N)=O)C(=O)O | 90.2
CCn1cc(C(=O)O)c(=O)c2cc3c(cc21)OCO3 | 96.8
O=C1c2c(O)ccc(O)c2C(=O)c2c(NCCNCCO)ccc(NCCNCCO)c21 | -1.31
CCCCOc1ccc(OCCCN2CCOCC2)cc1 | 54.8
CC[C@H]1OC(=O)[C@@](C)(F)C(=O)[C@H](C)[C@@H](O[C@@H]2O[C@H](C)C[C@H](N(C)C)[C@H]2O)[C@](C)(OC)C[C@@H](C)C(=O)[C@H](C)[C@H]2N(CCCCn3cc(-c4cccc(N)c4)nn3)C(=O)O[C@]12C | 6.12
Nc1ccc2cc3ccc(N)cc3nc2c1 | 17.8
CCN(CC)CCNC(=O)c1cc(S(C)(=O)=O)ccc1OC | 89.2
CNC[C@H](O)c1cccc(O)c1 | 83.3
